Measurements of several laboratories.
Parts stem from different laboratories: compare values within a part only. Changes are numbered by the printed parent chain.

Block 1 — method: RNA Bind-n-Seq; molecule type: RNA; medium: in vitro; concentration: 365 nM; reference: no-protein control; direction: higher = stronger binding
Target: RNA binding protein fox-1 homolog 2, RRM domain, GST-SBP tag (RBFOX2, Homo sapiens, UniProt O43251-10, residues 100-194)
Setting: natural RNA segment, single round, ends assumed
Constant ends, left off below: GGGAGUUCUACAGUCCGACGAUC … UGGAAUUCUCGGGUGCCAA
Target sequence (chain): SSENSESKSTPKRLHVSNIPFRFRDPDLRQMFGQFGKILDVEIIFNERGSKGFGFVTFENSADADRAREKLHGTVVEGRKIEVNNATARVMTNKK
Oligonucleotide | RBNS enrichment (R)
GAACACGUCCAGCCAAUCACCUGAAAUUGGGGUGUACAGAGAGGGUGCUGCUGUCACCCAGCUAUCUCUCCUUCCUCUAUGAUCUUUGUUUUCUGCCUUCCCACCUUCUC | 0.427
UAAGCUAGGAUAUGAUUAUAUUUCCUAUAUAACUAAAAAUUUUGUUUCAUAAAUUUUAAAAUAAUUAUUUUUGACUAUGAACAUUAGUCCAAAUUUAAUAUUUGACACAG | 0.719
AUGGACCGCAGUGCGCUCUGCUCUGGCGCUUUGUAACUCGCUCCUCCCUCUUCGGGGGCAGACCCCACACUCCGGGCAGGUGCUCAAACCUGACGGUAAACUCUUCCCUC | 0.341
CAGAUUUCCCUUUGAAGAAACACUUCUGACAUGGGUAAUUUCUCAAUCAGGGGUCACUUUUAUGAACAGCAUGCAGAAAAAUAGAUCUUCGGGAAUGUUUAAGAUCGAUC | 39.9
CUGUCUCCAUGUUAAAAUGCCAAAAAUGAUGUAGUUGUUGUUGCUUUUUUCCCUAUUUUCCACCCCAGUCGCUCCUUACCGUGACUCCUGCCCUUGGAGGGCAUGUAGCA | 1
GAUUUGGAUAGAGAAUACUAUUUCCAAAGUAGUGUUUAGCUCAUCUAGGGGGAUGUGUUUAUAUAUACAUUUGCAUAUACCCACGGGGGAUUAUGAGCUAAUUUUUUUUA | 0.703
AAUUCAUGGUUCAAGUAUUAAGCAGUUCAUUCUACCAAGCUGUCACAGGUUUUCAGAGAAUUAUCUCAAGUAAAACAAAUGAAAUUUAAUUACAAACAAUAAGAACAAGU | 0.402
CCUCCAUUGUCCCACGCACUCCUUGGCAGCAGAAUGCUGGCAGCUUGUGACCCUCAUGUUUCCUGUAAGUCUGUUUCAUGGUAGGGUUCAUACCUGCCUCAGCCUGACAG | 0.274
CGAGAAGACUCUCCUGCUCAGCUCUGAUGAUGAAUUCUAGGUGCGGGCUGCAGUGGCGGAAGUGCUGGCGCCAUAGCCACGGUCAGGCUGUGCCCCACCUCCAGCCUCAC | 0.273
GAUGACAUGCUCCAUACCAGUGGCUAGAUGGAGUAUUAAGGUGGAGCAGAAAAGAAGUGAGAACAUCUUGAUUCCCCUUUCUUUUACUUGAUGGUGUUUAUGAACAUGCC | 0.793
AGCCGGCCCCAGGUGCUCCCCUGACAGUCCCUCCUCUCCGGAGCAUUUUGAUACCAGAAGGGAAAGCUUCAUUCUCCUUGUUGUUGGUUGUUUUUUCCUUUGCUCUUUCC | 0.494
GCCCCCACCAAUGAGUUCUACGCGUGAAGCUUGCUUGUGGGCACUGGCUUGGACUUUAGCGGGGAGGGAAGCCAGGGGAUUUUGAAGGGUGGACAUUAGGGUAGGGUGAG | 2.26

Block 2 — method: protein-binding microarray; molecule type: double-stranded DNA, one strand shown; medium: in vitro; concentration: 250 nM; setting: 60-bp whole probe; with: salmon DNA 0.4 mg/ml; reference: random background probes; direction: higher = stronger binding; constant ends, left off below: GCCTAGCAC … GTCTTGATTCGCTTGACGCTGCTG
Target: Interferon regulatory factor 5, full length, phosphomimetic (IRF5, Homo sapiens, UniProt Q13568-2, residues 1-514, K96S/S451D/S453D/S456D/S462D)
Oligonucleotide | log fluorescence
GACGATATCAGTCTCGGGACGTGCTAG | 1 z-score
CACTCTCTGGGCTGTGGGTTTGTGCTA | -0.0966 z-score
AAGTTTCTCCTTTCGGAATAGTGCTAG | 7.35 z-score
GACGGTTTAGACTTTCGGGACGTGCTA | 4.21 z-score
GACGGTTTCGTCACTGGGGACGTGCTA | 2.92 z-score
GACGAACTGAGTAACGAGACGTGCTAG | -0.167 z-score
TCATGCTCATTTTTCAGACTGTGCTAG | 0.231 z-score
TTAGGTTTCGGTTTCGGTGAGTGCTAG | 11.5 z-score
GACGGTATCAGTTTCGGGACGTGCTAG | 7.14 z-score
TGGGTAATGCTTCTGTATTCGTGCTAG | 0.0388 z-score
TTCGATTTCGGGTATCGATTAGTGCTA | 7.98 z-score
TCATAAATCTTTGTTGGAACTGTGCTA | 0.467 z-score
GACGGTATCGGGTATCGGGATGTGCTA | 3.64 z-score
CTCTATACCCATGTAGAGAGGTGCTAG | -0.152 z-score
GACGAACTGGGGTTTCAAGACGTGCTA | -0.203 z-score
TCACTTCCCCTCTCTTTCACTGTGCTA | 1.67 z-score
TTGTGTTTGTCCCTATTTAAGTGCTAG | 0.396 z-score
GACGTACTGGGGTTTCGGGACGTGCTA | 1.05 z-score
CACGGACTGGACTATCGGGACGTGCTA | 0.71 z-score
TTAGGTATCCTTCTCCTTTGGTGCTAG | 0.289 z-score
TAAGAACTGGGGTTTCGATTAGTGCTA | 6.13 z-score
GACGGTTTCGGGTTTCGGTACGTGCTA | 9.03 z-score
GACGGTTTCCTTTTCCTTACGTGCTAG | 1.27 z-score
TTTTTTTTTGGAATGTCTTCGTGCTAG | 1 z-score
GACGGTTTCCACTTTCGGGACGTGCTA | 6.3 z-score

Block 3 — method: competition protein-binding microarray; molecule type: double-stranded DNA, one strand shown; medium: in vitro; concentration: 2 µM; with: Pho4 competitor, 0.05 µM; direction: higher = stronger binding; constant ends, left off below: … GTCTTGATTCGCTTGACGCTGCTG
Target: Centromere-binding protein 1, full length, His-tagged (CBF1, Saccharomyces cerevisiae, UniProt P17106, residues 1-351)
Sequence of UniProt P17106 (whole entry, looked up): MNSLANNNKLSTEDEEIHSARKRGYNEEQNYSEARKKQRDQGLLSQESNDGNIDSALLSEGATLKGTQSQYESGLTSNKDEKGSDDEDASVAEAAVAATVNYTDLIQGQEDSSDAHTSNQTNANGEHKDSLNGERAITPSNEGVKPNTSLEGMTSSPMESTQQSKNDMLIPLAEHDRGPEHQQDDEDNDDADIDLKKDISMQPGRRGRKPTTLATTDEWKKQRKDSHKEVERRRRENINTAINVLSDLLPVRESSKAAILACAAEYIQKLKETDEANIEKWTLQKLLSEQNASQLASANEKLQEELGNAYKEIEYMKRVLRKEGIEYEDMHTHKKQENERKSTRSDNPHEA
Setting: whole 60-bp probe, lowest competitor level
Oligonucleotide | fluorescence intensity [a.u.]
CAAAGGTGAAATTGCCGCGTGGCCGCTAGATCCTGC | 79.2
AGCTCTCCATTATTTTGAAGTTTTAGACCCTATAAT | 75.3
CTAACGAAGGTTTGTCACTCCACTTACAAGCCAAGT | 88
TGAACGCCATTACTAATGCATTTAAAAACTGCTTTT | 86
CTAGTATTGAATGTTTTCGTGATGGTTTATTGAGAC | 96.5
CTTTCCCGATCTTTTCACGTGTACTTAGCACATTTG | 873
CATACCCAACCTTGTCACCAGACTTAAGATATTTGT | 101
AAAGCGGTAATTTGTCACTGTACTTCACATATCTAT | 84.2
AGAGATTTACGATCTAGCGTGGTTACCTAATAACAG | 84.9
TGTATAAGGACTACCCACGTGAGACCGTTTCCAAAC | 910
CAGGAAAAGTCTTTGGTGTTTCCTTCTTTGTACATT | 76.6
ACTAGTAAGGGTAGTGGTGTGACGCTGACCCGATCG | 79.4
AAATTACTAAGTTGGGACGTGGGTGACGCCGTATGA | 63.5
AACAATAGAGAATCGCACGTGGCAATATTCGCGTTA | 1140
TCTTTTCAGAGGCCCCATGTGGGCCCTTTCTTCCAA | 60.1
AGATTATTACAAGTGGTCGTGATGGACGTAAAGTTT | 96.1
CTTCTGTAAATTTGCGTGGTGGGTGGACGCGCCCCG | 74
CTTCTGTAAATTTGTCACGTGACTTGACGCGCCCCG | 23000
AAAGCGGTAATTTGCACGGTGGGTGCAGATATCTAT | 79.5
TTTAGGGCTACTTGGAATGTGATATCATTCTTACAA | 80.3
CGGGGTTAAGTTTGCCCCGTGGGTGGCTTGCAGCAG | 72.6
GCCTCCGAAGATTGGGACGTGCCAGCGGAGCAAGTT | 58
CAATCTGATGATGTGGTCGTGGGTAGGCTTAGCCAA | 66.2
AAAGGCCATACCCGTCACAGTCCATCACAGAACCGC | 64.3
CTTCTGTAAATTTGGTCAGTGGGTGGACGCGCCCCG | 86.2

Block 4 — target: BATF2, bZIP domain (human); method: DHFR protein complementation; medium: yeast; reference: wild-type JUN-FOS pair; direction: higher = stronger binding
Setting: single substitutions, most at no-binding floor
Parent: JUN, bZIP domain (human); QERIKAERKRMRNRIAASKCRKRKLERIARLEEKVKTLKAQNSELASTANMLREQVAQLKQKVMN; partner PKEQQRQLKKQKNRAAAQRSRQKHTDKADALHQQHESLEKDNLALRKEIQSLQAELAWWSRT
Change | binding fitness [natural log]
Q58P | -1.01
E33P | -1.29
A40P | -1.37
S47T | -0.29
E54G | -0.456
R30K | -0.328
E32A | -0.0448
Q55A | -0.288
L59S | -0.843
A40L | -0.405
E33S | -0.493
E32Q | -0.538
T48I | -0.303
T37H | -0.12
Q41L | -0.341
A40D | -0.302
V56C | -0.735
L38Q | -0.958
E33A | -0.383
L52D | -0.842
M51D | -0.107
E44V | -0.394
A46E | -0.173
V35Y | -1.29
A57M | -0.525

Block 5 — method: universal PBM; molecule type: double-stranded DNA, one strand shown; medium: in vitro; concentration: 600 nM; direction: higher = stronger binding
Target: Sal-like protein 4, full length isoform A (SALL4, Homo sapiens, UniProt Q9UJQ4, residues 1-1053)
Sequence of UniProt Q9UJQ4 (whole entry, looked up): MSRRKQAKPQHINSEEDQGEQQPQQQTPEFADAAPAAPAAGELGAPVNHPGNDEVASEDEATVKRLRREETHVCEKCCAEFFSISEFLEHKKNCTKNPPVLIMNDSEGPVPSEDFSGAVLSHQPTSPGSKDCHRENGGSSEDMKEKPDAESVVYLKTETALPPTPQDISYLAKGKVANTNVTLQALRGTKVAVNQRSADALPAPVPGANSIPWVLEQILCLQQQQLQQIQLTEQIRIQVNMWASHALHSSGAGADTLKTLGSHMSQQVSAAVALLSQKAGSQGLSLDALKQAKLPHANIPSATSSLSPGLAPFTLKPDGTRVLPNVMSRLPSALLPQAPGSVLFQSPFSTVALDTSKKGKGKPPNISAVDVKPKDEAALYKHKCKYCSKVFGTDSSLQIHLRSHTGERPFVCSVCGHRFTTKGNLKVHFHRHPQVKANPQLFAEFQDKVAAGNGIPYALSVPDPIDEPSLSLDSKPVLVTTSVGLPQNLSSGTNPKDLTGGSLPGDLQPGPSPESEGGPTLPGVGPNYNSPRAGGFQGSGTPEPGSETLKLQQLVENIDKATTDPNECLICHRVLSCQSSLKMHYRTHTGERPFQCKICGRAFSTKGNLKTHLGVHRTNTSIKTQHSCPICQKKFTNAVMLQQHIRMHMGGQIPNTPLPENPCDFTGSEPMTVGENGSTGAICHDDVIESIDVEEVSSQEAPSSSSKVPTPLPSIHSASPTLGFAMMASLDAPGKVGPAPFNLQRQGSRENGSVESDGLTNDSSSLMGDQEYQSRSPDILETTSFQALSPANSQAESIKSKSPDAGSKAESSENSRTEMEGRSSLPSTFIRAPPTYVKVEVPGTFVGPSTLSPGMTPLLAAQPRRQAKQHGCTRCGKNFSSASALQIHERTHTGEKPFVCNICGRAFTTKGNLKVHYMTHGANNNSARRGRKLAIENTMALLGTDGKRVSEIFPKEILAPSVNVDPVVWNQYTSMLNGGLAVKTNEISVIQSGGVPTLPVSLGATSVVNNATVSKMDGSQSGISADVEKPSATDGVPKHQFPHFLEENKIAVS
Setting: 8-mer, flanks averaged, mean of replicates
Oligonucleotide | E-score
ATTCTTTA | 0.264
CACAACAC | 0.108
ATGTTCCA | -0.00758
ATCAGGTC | -0.109
ATTTATTC | 0.358
CTCTTTGC | 0.0066
GAAAATAC | 0.177
GAGAAGAC | -0.07
CACGCGTA | -0.14
ACCCTTGG | -0.208
AATGAAAT | 0.326
GGTTGGCA | -0.127
ATGTTACG | 0.136
AAAATGTG | 0.251
AAAGCAAT | 0.215
CTCATCAG | 0.0997
GGCTTAAA | 0.0161
CATAGGAA | 0.11
CATAATGC | 0.263
CATACCGC | -0.0716
GTCCCGTA | -0.0841

A few entries again (block 3):
Oligonucleotide | fluorescence intensity [a.u.]
AAATTACTAAGTTGGGACGTGGGTGACGCCGTATGA | 63.5
AGATTATTACAAGTGGTCGTGATGGACGTAAAGTTT | 96.1
CTTCTGTAAATTTGTCACGTGACTTGACGCGCCCCG | 23000
TGTATAAGGACTACCCACGTGAGACCGTTTCCAAAC | 910
CAAAGGTGAAATTGCCGCGTGGCCGCTAGATCCTGC | 79.2
CAATCTGATGATGTGGTCGTGGGTAGGCTTAGCCAA | 66.2
CTAACGAAGGTTTGTCACTCCACTTACAAGCCAAGT | 88
TTTAGGGCTACTTGGAATGTGATATCATTCTTACAA | 80.3
CTTTCCCGATCTTTTCACGTGTACTTAGCACATTTG | 873
TCTTTTCAGAGGCCCCATGTGGGCCCTTTCTTCCAA | 60.1
AAAGCGGTAATTTGTCACTGTACTTCACATATCTAT | 84.2
GCCTCCGAAGATTGGGACGTGCCAGCGGAGCAAGTT | 58
CTTCTGTAAATTTGGTCAGTGGGTGGACGCGCCCCG | 86.2
AACAATAGAGAATCGCACGTGGCAATATTCGCGTTA | 1140
